Results gathered from unrelated publications.
Each numbered part is a random draw from the data of one study; scales do not carry over between parts.

Study 1
Target: Fragile X messenger ribonucleoprotein 1, C-terminal low-complexity region (Fmr1, Mus musculus, UniProt P35922)
Method: RNA Bind-n-Seq
Form: RNA
Matrix: in vitro
Tested at: 200 nM
Setting: whole 134-nt RNA, ends assumed
Together with: 150 mM KCl
Relative to: input library
Reading: higher = stronger binding
Oligonucleotide	log2 enrichment
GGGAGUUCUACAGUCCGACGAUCAGUCCUGUGCUACACAUCGUAUGUACCGAAUCGGGUUUUUGGGUUUUUGGGAAAGGGAAAGUAUUAUGUUACGCCGUUCGGAUCUGCACUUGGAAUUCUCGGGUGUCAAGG	0.28
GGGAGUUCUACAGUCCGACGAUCAAGUCCUGUGCUACACAUCGUAUGUACCGAAUCGGCCCCGGGGCCCCGGGCCCCGGGAAAGUAUUAUGUUACGCCGUUCGGAUCUGCACUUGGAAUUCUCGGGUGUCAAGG	-0.392
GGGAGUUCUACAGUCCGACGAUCCCUGUGCUACACAUCGUAUGUACCGAAUCGGAAAAAAAGGGGAAAAAAAGGGAAAAAAAGGAAAGUAUUAUGUUACGCCGUUCGGAUCUGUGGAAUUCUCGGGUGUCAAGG	-1.05
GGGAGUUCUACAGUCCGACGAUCCUCAAGUCCUGUGCUACACAUCGUAUGUACCGAAUCGGGUUUGGUUUGGUUUGGAAAGUAUUAUGUUACGCCGUUCGGAUCUGCACUUCCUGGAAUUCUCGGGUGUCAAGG	-0.266
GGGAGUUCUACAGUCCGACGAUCGUCCUGUGCUACACAUCGUAUGUACCGAAUCGGGGUUUUUGGGGUUUUUGGGGAGGGGAAAGUAUUAUGUUACGCCGUUCGGAUCUGCACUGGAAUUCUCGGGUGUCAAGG	0.702
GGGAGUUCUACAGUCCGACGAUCACCAAACAGGUGGGCAUCUUUGGGAAGUGGGGCAAGGGGGGGAUAGGGAGGGGGGUAACACUUUGGGAACAGGUGGUCCCAGGUCGUUUCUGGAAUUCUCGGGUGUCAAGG	1.12
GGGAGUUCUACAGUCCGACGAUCCAAGUCCUGUGCUACACAUCGUAUGUACCGAAUCGGGUGGGAGGGUUUUUUUGGGAAAGUAUUAUGUUACGCCGUUCGGAUCUGCACUUCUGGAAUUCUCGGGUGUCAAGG	0.905
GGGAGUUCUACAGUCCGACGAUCACCAUGCAGGUGGGCAUCUUUGGGAAGUGGGGCAAGGGGGGGAUAGGGAGGGGGGUAACACUUUGGGAACAGGUGGUCCCAGGUCGUUUUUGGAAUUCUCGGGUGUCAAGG	0.847
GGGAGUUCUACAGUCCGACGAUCCACAGACAACACGAAACCACACAGACACAGAGGGAAGGGGUUGGGAUGGGGACAGGGUGCACAGCAGGGCGGGGUAGGACCCCAGCCCCUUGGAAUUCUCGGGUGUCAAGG	1.35
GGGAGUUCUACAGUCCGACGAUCACCAUGCAGGUGGGCAUCUUUGGGAAGUGGGGCAAGGCGGGGAUAGGGAGGGGGGUAACACUUUGGGAACAGGUGGUCCCAGGUCGUUUCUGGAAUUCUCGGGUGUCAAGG	0.896
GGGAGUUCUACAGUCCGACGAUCCUGUGCUACACAUCGUAUGUACCGAAUCGGGGCCCCCCCGGCCCCCCCGGGGCCCCCCCGGAAAGUAUUAUGUUACGCCGUUCGGAUCUGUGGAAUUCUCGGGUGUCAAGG	-0.727

Study 2
Target: Cyclic AMP-dependent transcription factor ATF-1 (ATF1, Homo sapiens, UniProt P18846, residues 1-271, full length assumed)
Method: protein-binding microarray
Form: double-stranded DNA, one strand shown
Matrix: in vitro
Tested at: not given
Setting: k-mer, scored over probes, only values ≥0.25
Reading: higher = stronger binding
Construct (chain): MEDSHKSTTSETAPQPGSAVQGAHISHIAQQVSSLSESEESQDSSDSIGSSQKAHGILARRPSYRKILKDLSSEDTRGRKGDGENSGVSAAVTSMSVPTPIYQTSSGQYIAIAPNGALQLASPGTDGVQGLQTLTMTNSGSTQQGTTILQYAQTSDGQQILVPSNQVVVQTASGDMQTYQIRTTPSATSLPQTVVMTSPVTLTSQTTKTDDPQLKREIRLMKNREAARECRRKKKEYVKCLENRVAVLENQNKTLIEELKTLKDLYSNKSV
Oligonucleotide	E-score
ACGACAA	0.254
CTGTGAC	0.367
GAACGTA	0.296
CATGACG	0.473
ACGTAAG	0.415
CGTGGTA	0.278
AACGTAT	0.294
GCATCAC	0.337
GATGACA	0.344
CATTACG	0.307
CCTTACG	0.27

Study 3
Target: RING finger protein unkempt homolog, zinc fingers 1-6, GST-SBP tag (UNK, Homo sapiens, UniProt Q9C0B0, residues 30-357)
Sequence of UniProt Q9C0B0 (30-357, looked up): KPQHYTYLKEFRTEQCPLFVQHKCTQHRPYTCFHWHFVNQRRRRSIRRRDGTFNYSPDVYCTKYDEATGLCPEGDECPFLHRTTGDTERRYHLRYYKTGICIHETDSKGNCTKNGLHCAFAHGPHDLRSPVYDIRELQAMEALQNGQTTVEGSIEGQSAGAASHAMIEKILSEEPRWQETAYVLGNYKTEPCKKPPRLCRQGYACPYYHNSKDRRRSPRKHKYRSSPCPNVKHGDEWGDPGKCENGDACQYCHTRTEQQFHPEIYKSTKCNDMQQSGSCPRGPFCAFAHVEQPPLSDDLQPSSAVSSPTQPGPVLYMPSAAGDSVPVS
Method: RNA Bind-n-Seq
Form: RNA
Matrix: in vitro
Tested at: not given
Setting: RNA with constant flanks, ends assumed
Relative to: input RNA pool
Reading: higher = stronger binding
Oligonucleotide	bound/input enrichment [ratio]
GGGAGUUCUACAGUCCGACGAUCGUUAUUUUAAUAAUCCCUUUAAAUUUUAUCUGUUGCUGUUACCUCUUGAAAUAUGAUUUAUUCCGAUUGCUAAUCCCACUCAUUCAGGAAAUGCCAAGAGGUAUUCCUUGGGGAAAUGGUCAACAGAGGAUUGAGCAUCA	1.37
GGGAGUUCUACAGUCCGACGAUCUAUGUGGAGACAGAACUGAUAUUCGCACUGGCUAAAACAAACCGCCUUGCAGAGUCCGAAGAAUUUAUCAAUGGACCAAAUAAUGCUCAUAUCCAACAAGUUGGUGACCGUUGUUAUGAUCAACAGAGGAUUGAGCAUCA	0.428
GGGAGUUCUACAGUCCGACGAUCGAAGACACAGAAGCAAAGAACCCAUUUUCUACUCAGGACACAGAUUUAGACUUGGAGAUGUCCGCUCCCUAUAUCCCAAUGGAUGAUGACUUCCAGUUACGUUCCUUCGAUCAGUUGUCACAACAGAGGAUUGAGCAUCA	0.353
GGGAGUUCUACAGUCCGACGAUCAUGGAGUAGAUUGUACAUUAAAUGUUUUGUUUCUUUACAUUUUUAUGUUCUGAGUUUUGAAACCGUUUUAUGAAAUUUCUUUAUUUUUCAUUGCAUAGACUGUUAAUAUGUAUAUAAUACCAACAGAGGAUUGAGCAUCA	0.86
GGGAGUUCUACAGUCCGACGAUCGCGGUCAUUUUCGGGCCUGAAGGGACCCCGUUUGAGGAUGGAACAUUUAAACUUACAACCGAAUUCACUGAAGAAUAUCCAAAUAAACCACCUACAGUUAGAUUUGUCUCUAAGAUGUUCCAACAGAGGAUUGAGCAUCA	0.689
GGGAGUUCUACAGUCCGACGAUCGGUGCUACACGAAUCCCUGCGGUAAAAGAGAAGAUCAGCAAAUUUUUCGGUAAAGAACUCCGUACAACAUUAAAUGCUGAUGAAGCUGUCACUCGAGGCUGUGCAUUGCAGUGUGCCAUCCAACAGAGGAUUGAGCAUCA	0.594
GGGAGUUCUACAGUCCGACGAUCACUUUUCCAUGCAGAUUUGUGCACAUGUGAGAGGGUGUCCAGUUUGUCUAGUGAUUGUUAUUCCGAGAGUUGGACCACUAUUGUGUGUUGCUAAUCAUUGACUGUAGUCCCAAAAAAGCCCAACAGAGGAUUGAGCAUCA	0.172

Other studies, line by line
Molecule	tested on	assay	system	setting	how to read	endpoint	value
KLLPRKLQFFCDP	Saccharomyces cerevisiae	peptide binding, yeast competitive growth sequencing	peptide, cyclin F-Cln2 fusion	concentration not given, Cln2 background subtracted	direction not given	binding score	6.25
PhoQ, residues 284 288 289 292 302 303 SIHLQL	PhoP, residues 12 14 15 18 19 VHSCL (Escherichia coli, UniProt P23836)	Sort-seq, item: YFP reporter	E. coli	PhoQ-PhoP variant library, together with: 10 µM Mg2+	relative to: high Mg2+ state, higher = stronger signaling	fold induction	5.63
GSPAKKLFTSTGL	human cyclin B2	peptide binding, yeast competitive growth sequencing	peptide, Saccharomyces cerevisiae, cyclin B2-Cln2 fusion	concentration not given, library 1	direction not given	binding enrichment score	0.12

A few entries again (study 3):
Oligonucleotide	bound/input enrichment [ratio]
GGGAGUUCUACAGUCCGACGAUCUAUGUGGAGACAGAACUGAUAUUCGCACUGGCUAAAACAAACCGCCUUGCAGAGUCCGAAGAAUUUAUCAAUGGACCAAAUAAUGCUCAUAUCCAACAAGUUGGUGACCGUUGUUAUGAUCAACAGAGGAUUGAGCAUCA	0.428
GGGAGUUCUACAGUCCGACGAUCGAAGACACAGAAGCAAAGAACCCAUUUUCUACUCAGGACACAGAUUUAGACUUGGAGAUGUCCGCUCCCUAUAUCCCAAUGGAUGAUGACUUCCAGUUACGUUCCUUCGAUCAGUUGUCACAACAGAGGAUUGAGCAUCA	0.353
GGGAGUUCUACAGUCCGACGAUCAUGGAGUAGAUUGUACAUUAAAUGUUUUGUUUCUUUACAUUUUUAUGUUCUGAGUUUUGAAACCGUUUUAUGAAAUUUCUUUAUUUUUCAUUGCAUAGACUGUUAAUAUGUAUAUAAUACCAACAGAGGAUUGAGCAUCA	0.86
